Measured values of several laboratories.
Parts stem from different laboratories: compare values within a part only. Positions count from the first letter of the parent shown.

Set 1
Target: ABI1, truncated, D143A, DHFR fusion (Arabidopsis thaliana)
Method: DHFR PCA, deep sequencing
Medium: yeast
Notes: methotrexate growth selection, single substitutions
Together with: (+)-ABA 0.39 µM
Baseline: wild-type fitted maximum
Direction: higher = stronger binding
Starting sequence: PYL1, truncated, DHFR fusion (Arabidopsis thaliana); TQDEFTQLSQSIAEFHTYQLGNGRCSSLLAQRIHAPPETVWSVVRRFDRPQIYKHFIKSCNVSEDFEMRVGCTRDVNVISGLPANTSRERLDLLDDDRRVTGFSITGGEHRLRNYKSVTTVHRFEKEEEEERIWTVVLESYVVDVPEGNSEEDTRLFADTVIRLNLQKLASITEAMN
Under “relative binding score”, `K116Q` is recorded as 23.9%.
`V70M` — result for “relative binding score”: 2.87%.
Under “relative binding score”, `D75E` is recorded as 73.2%.
`G21I`: “relative binding score” 28.1%.
For `E147C`, “relative binding score” read 11.8%.
For `R90N`, “relative binding score” read -0.27%.
`D65V`: “relative binding score” 11.9%.
Under “relative binding score”, `L28K` is recorded as 3.52%.
For `G71N`, “relative binding score” read -3.01%.
`R163Y`: “relative binding score” -29.5%.
`H55K` — result for “relative binding score”: 48.2%.
`C72F` — result for “relative binding score”: -5.35%.
`F103Q` — result for “relative binding score”: -9.51%.
`V118N` — result for “relative binding score”: -0.433%.
`E130H` — result for “relative binding score”: 45.3%.
For `S140W`, “relative binding score” read 7.73%.

Set 2
Target: Ras GTPase-activating protein-binding protein 1, RRM domain (G3BP1, Homo sapiens, UniProt Q13283)
Chain of UniProt Q13283 (whole entry, looked up): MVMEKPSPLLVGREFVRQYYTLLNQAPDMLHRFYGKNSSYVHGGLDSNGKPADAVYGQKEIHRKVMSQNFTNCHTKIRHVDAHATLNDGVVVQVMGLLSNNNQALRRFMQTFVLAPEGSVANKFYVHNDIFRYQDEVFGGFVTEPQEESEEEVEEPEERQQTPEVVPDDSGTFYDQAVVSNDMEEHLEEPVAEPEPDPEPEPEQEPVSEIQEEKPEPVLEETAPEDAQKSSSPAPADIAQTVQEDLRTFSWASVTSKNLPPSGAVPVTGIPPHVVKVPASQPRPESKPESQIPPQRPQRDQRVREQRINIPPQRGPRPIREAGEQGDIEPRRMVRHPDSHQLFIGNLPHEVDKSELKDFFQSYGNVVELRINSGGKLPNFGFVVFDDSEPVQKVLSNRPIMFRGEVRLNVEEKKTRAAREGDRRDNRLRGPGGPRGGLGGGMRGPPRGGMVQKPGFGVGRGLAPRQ
Method: RNA Bind-n-Seq
Molecule type: RNA
Medium: in vitro
Tested at: 1 µM
Notes: whole 134-nt RNA, ends assumed
Together with: 150 mM KCl
Baseline: input library
Direction: higher = stronger binding
`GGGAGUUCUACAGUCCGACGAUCUACAGGAGCUUCCUGGGACUGACCUGCCUGAUGCAAAUUUCUACUCGGACGGAAGACUUCAUCAUUGACACCCUCGAGCUUCGAAGUGACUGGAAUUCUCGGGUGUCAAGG` gave a log2 enrichment of 0.0428.
With `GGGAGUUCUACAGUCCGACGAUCAAGUCCUGUGCUACACAUCGUAUGUACCGAAUCGGGUUUUGGUUUUGGUUUUGGGGAAAGUAUUAUGUUACGCCGUUCGGAUCUGCACUUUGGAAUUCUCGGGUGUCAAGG` the log2 enrichment was -0.331.
For `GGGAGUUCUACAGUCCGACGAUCUCGGACGCCGCCAACCUGCACGAGUUCCACGCGGACCUGCGCUCAUGCUUUGCACCCCAGCACAUGGCCAUGCUGUGUAGCCCCAUCCUCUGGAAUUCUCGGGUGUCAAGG`, the log2 enrichment was 0.109.
For `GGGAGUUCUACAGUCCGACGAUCGUCCUGUGCUACACAUCGUAUGUACCGAAUCGGGGAAAAAAAGGGGAGGGGUUUGGGGAAAGUAUUAUGUUACGCCGUUCGGAUCUGCACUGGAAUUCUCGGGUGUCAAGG`, the log2 enrichment was 0.878.
`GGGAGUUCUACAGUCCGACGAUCCCUCAAGUCCUGUGCUACACAUCGUAUGUACCGAAUCGGGAGGAGGGAGGGGAAAGUAUUAUGUUACGCCGUUCGGAUCUGCACUUCCAGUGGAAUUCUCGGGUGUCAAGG` gave a log2 enrichment of 0.35.
With `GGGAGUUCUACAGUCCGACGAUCUCAAGUCCUGUGCUACACAUCGUAUGUACCGAAUCGGAAAGGAAAGGGGAAAGGGAAAGUAUUAUGUUACGCCGUUCGGAUCUGCACUUCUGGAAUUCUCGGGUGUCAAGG` the log2 enrichment was -0.272.
With `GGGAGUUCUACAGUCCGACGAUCUGUUUAAUAAACGUGAAGAUGUCUCGCAGUCCUGAUGCGAAGGAAGACCCUGUGGAGUGCCCUCUUUGCAUGGAGCCCUUGGAGAUAGAUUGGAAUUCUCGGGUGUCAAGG` the log2 enrichment was -0.129.
For `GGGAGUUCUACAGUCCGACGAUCGUCCUGUGCUACACAUCGUAUGUACCGAAUCGGGGUUUUUGGUUUUUGGGUUUUUGGGGAAAGUAUUAUGUUACGCCGUUCGGAUCUGCAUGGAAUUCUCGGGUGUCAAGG`, the log2 enrichment was -0.191.
`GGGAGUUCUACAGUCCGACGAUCGUCCUGUGCUACACAUCGUAUGUACCGAAUCGGGGAGGGGAAAGGGGAAAAAAAGGGGAAAGUAUUAUGUUACGCCGUUCGGAUCUGCACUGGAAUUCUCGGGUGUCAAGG` has a log2 enrichment of 0.754.
`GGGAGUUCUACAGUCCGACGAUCAGUCCUGUGCUACACAUCGUAUGUACCGAAUCGGUUUUUGGUUUUUGGUUUUUUUGGAAAGUAUUAUGUUACGCCGUUCGGAUCUGCACUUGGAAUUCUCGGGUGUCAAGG` has a log2 enrichment of -0.237.

Set 3
Target: Interferon regulatory factor 7, full length, phosphomimetic (IRF7, Homo sapiens, UniProt Q92985, residues 1-503, S471D/S472D/S475D/S476D/S477D/S483D/S484D/S487D)
Method: protein-binding microarray
Molecule type: double-stranded DNA, one strand shown
Medium: in vitro
Tested at: 2200 nM top
Notes: 60-bp whole probe
Together with: salmon DNA 0.4 mg/ml
Baseline: random background probes
Direction: higher = stronger binding
Constant ends, left off below: GCCTAGCAC … GTCTTGATTCGCTTGACGCTGCTG
Construct (chain): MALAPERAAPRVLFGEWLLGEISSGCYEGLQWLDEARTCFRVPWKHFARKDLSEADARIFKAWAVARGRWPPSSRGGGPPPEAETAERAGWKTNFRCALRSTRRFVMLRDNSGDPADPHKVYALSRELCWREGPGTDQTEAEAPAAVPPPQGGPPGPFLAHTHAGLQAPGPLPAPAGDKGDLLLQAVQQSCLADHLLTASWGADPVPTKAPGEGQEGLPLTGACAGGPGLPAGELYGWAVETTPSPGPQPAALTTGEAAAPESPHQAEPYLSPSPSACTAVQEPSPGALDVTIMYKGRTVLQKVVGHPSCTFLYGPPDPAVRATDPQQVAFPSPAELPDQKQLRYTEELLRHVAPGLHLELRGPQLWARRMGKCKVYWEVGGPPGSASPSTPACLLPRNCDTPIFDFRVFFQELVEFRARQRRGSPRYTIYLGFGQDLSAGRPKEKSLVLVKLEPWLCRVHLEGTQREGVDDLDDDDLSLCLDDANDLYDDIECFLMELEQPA
`TATTGTTTCCTCTTTCACTGGTGCTAG` — result for “fitted relative affinity”: 3.6 z-score.
`GACGGTTCCCTTTTCCTAACGTGCTAG`: “fitted relative affinity” 2.82 z-score.
`TTAGGTCTCGACTTTCGGTTAGTGCTA`: “fitted relative affinity” 5.74 z-score.
`GCTCATCTGTCATGTTTGTCAGTGCTA` — result for “fitted relative affinity”: 1.31 z-score.
`GACGATTTCAGTTTCTAGACGTGCTAG` — result for “fitted relative affinity”: 3.22 z-score.
`GACGGACTGGGATATCGGGACGTGCTA`: “fitted relative affinity” -0.967 z-score.
`TTAGGTATCGGTTTTGGTTAGTGCTAG`: “fitted relative affinity” 2.62 z-score.
Under “fitted relative affinity”, `TTAGGTATCGGACTGCGTTAGTGCTAG` is recorded as 0.124 z-score.
`GACAGTATCCTTATCCTGACGTGCTAG` — result for “fitted relative affinity”: 0.902 z-score.
For `TTAGGTTTCCTTTTCGTTTAGTGCTAG`, “fitted relative affinity” read 6.33 z-score.
Under “fitted relative affinity”, `TCATCTTTTATGCTCTTACTGTGCTAG` is recorded as 1.63 z-score.
Under “fitted relative affinity”, `GCCGAACTGGGGTATCGAGACGTGCTA` is recorded as -0.446 z-score.
`TTAGGTTTCGGTATCGCTTAGTGCTAG` — result for “fitted relative affinity”: 7.16 z-score.
Under “fitted relative affinity”, `GACGATCACAGACTGGAGACGTGCTAG` is recorded as -0.139 z-score.
Under “fitted relative affinity”, `TTACGTTTCCTTATCCTTTAGTGCTAG` is recorded as 4.52 z-score.
`TTAGATATCGGGACGGGATTAGTGCTA`: “fitted relative affinity” -0.296 z-score.
Under “fitted relative affinity”, `TCAACTTTTATTTTCAGACTGTGCTAG` is recorded as 1.71 z-score.
`TTTTTTCTTTTATTAGTGACGTGCTAG` — result for “fitted relative affinity”: 3.2 z-score.

Set 4
Target: RNA binding protein fox-1 homolog 2, RRM domain, GST-SBP tag (RBFOX2, Homo sapiens, UniProt O43251-10, residues 100-194)
Method: RNA Bind-n-Seq
Molecule type: RNA
Medium: in vitro
Tested at: 365 nM
Notes: natural RNA segment, single round, ends assumed
Baseline: no-protein control
Direction: higher = stronger binding
Construct (chain): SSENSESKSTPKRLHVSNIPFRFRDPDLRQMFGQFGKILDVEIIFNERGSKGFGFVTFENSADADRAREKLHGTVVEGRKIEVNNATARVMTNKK
`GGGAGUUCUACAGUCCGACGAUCCUCUCCAAAUUCUUCCUUCUUUGUGCACCCUGCCUUUCUUCCCUUCCAUCCUUUCUUUUUUGUAUAUUAUUGUUUACAAUAAAUAUACAUUGCAUUAAAGUGAAAACAGCUGGAAUUCUCGGGUGCCAA` — result for “RBNS enrichment (R)”: 0.451.
For `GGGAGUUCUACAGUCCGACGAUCGGAAAGCAGGAAGGGGAAUUUUUAUCCUCCUCCCUUCCGUAAAGUGCUGGGAUAUUUUGAAUCCCCCAAGUUCCCUUGGACCUACUGAUGAGAGAUAGUUUUAUGUAUGGUGGAAUUCUCGGGUGCCAA`, “RBNS enrichment (R)” read 0.585.
For `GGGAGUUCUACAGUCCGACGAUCGCUGACCACAUAUUAUGCCAGUGACCAGUAUGACAGGAGAUGGGGCCCUGCUGCCAGUCAUCUCCACUGAAUAAAGAAUAAUGCUCCUCUUUCAGGGUAAUAAAGUGGGGUGGAAUUCUCGGGUGCCAA`, “RBNS enrichment (R)” read 0.457.
For `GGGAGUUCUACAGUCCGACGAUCUAGGGAUCCAUAGAUAAAUAAGCUACUAACAAACUGAUAACAGUGGUGUUCCAUCUCUCUAUCAUGUCUCCUGAGUCCGUUUCACGUUUUUGAGCCUGGCUAAUGAGAAAUGGAAUUCUCGGGUGCCAA`, “RBNS enrichment (R)” read 0.448.
For `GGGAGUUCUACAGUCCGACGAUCUCGGCUCAUAUGAGAGAGCAGGUUCCUGCCCUUGAAAAUGCCGGUAAGCUAUAGCAUAUGUUUUUUAAGACUUAAGCAUUUCAUGCUUUAAAAUACCUUCACAAGUGAACUGGAAUUCUCGGGUGCCAA`, “RBNS enrichment (R)” read 0.271.
For `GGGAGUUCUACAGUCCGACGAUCAAAAAAUAAAUUUAUAUAUGAAAAUGUCAAAAUCAUUUUAAAAGUAUUAUUUUCAAAUAAAAUGGAGAAGCUGGUGAAAAGUCAUAUUGGCAAUUUUUAUGUAGUUUAAGUGGAAUUCUCGGGUGCCAA`, “RBNS enrichment (R)” read 0.618.
`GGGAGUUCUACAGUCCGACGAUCCAUUUUUGUACACCCACAGUGGUACCUUUUACAGUCAGGUUUGGAUACUUUGCAGCUCAUCCAAAGAGACAUAACUAAACCCUAAACUCUUUUUUUGUUGUUGUUGUUGUUGGAAUUCUCGGGUGCCAA`: “RBNS enrichment (R)” 0.431.
For `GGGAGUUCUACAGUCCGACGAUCGUGAAUUGAUUUAUAAAUUGCUAUGCUUUGCUGUUUUUCUGUUGCUGUGGAACUUAAAGAAUGUGAAAGCUGUCAAAGGGUAUUUUACGAAUCACUUUUGUGUUUGAUAUUGGAAUUCUCGGGUGCCAA`, “RBNS enrichment (R)” read 2.21.
For `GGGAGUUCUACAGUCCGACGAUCAAAUAUUAUUAAAACAUUUCUGCCUAUGGUUAAAAAUCCAGAAAUCAAAGAAAUGAUCUUCAUGAUAAACUUCAAAGGAACAAACUUUAUGUUUUAGCUUCUAAAGACAAUGGAAUUCUCGGGUGCCAA`, “RBNS enrichment (R)” read 0.34.
`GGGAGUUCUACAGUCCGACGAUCUGCCUUCACCGGGAGCCACGCCGUGCAUGGCAGCCUUCCCUGGACGAGCGCUCGGUGUUCACACUGAACUGUGGGGUCGACGGGAGGGGUGCCUUUUACAUGUUCUAUUUUGGAAUUCUCGGGUGCCAA` — result for “RBNS enrichment (R)”: 0.242.
For `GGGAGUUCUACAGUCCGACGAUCGGCUGCAUGGAUUCUCACAUCAGAGUUCUCUGGCCCUAGAAAGGCUUAGAAAAGGCGUAAGGGAACUCAUAAAGGCUAGCAGCAUGCGGUAUUUUAACUUUCUGCCUCGGUGGAAUUCUCGGGUGCCAA`, “RBNS enrichment (R)” read 8.57.
Under “RBNS enrichment (R)”, `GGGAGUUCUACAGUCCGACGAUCAGAAGUCACAUGGGUUCUCAGGGUAUGCCAGGGGCAGAAACAGUACCGGCUCUCUGUCACUCACCUUGAGAGUAGAGCAGACCCUGUUCUGCUCUGGGCUGUGAAGGGGUUGGAAUUCUCGGGUGCCAA` is recorded as 0.341.

Some of these lines once more (set 1):
Under “relative binding score”, `L28K` is recorded as 3.52%.
For `G71N`, “relative binding score” read -3.01%.
`R163Y`: “relative binding score” -29.5%.
`H55K` — result for “relative binding score”: 48.2%.
`C72F` — result for “relative binding score”: -5.35%.
